Published values from different studies.
Each line is one published result; not all experiments were run side by side.
Target: Dual specificity protein kinase CLK1 (CLK1, Homo sapiens, UniProt P49759)

SMILES | assay | conditions | scale | measurement | value
C=CC(=O)Nc1cccc(-c2cnc3[nH]cc(C(=O)NC(C)(C)C)c3n2)c1 | enzyme activity, inhibitor | 0.1 µM | – | inhibition | 11%
CCN1CCN(Cc2ccc(C(=O)Nc3ccc(C)c(NCc4cnc5[nH]ccc5c4OC)c3)cc2C(F)(F)F)CC1 | binding, competition with immobilised ligand | 1 µM | – | remaining binding | 83%
COc1c(Cl)cccc1Nc1c(-c2ccncc2C#C[C@@]2(C)CCCN2C(=O)/C=C/CN(C)C)[nH]c2c1C(=O)NCC2 | binding, competition with immobilised ligand | 3 µM | – | remaining binding | 100%
CCn1cc(C(=O)O)c(=O)c2c(N)c(F)c(NC3CCCCC3)cc21 | kinase activity | 0.1 µM, together with: ATP at Km | – | inhibition | 9.3%
C=CC(=O)N1CCCC(n2c(=O)c3ncccc3n(Cc3ccc(Oc4ccccc4)cc3)c2=O)C1 (stereo not shown) | cell-free assay, competition with immobilised ligand | 1 µM | – | remaining binding | 93%
C=CC(=O)N1Cc2nc(-c3cc(-c4cc(Cl)cnc4Cl)c(F)cc3F)n(-c3ccncn3)c2C1 | cell-free assay, inhibitor | 1 µM | – | inhibition | 6.4%
NC(=O)C[C@H]1CCc2sc3ncnc(O[C@H]4CC[C@H](N5CCOCC5)CC4)c3c21 | enzyme activity, inhibitor | 10 µM | – | inhibition | 90%
CN1CC[C@@H](COc2cnc(C#N)cc2-c2ccn3nc(NC(=O)C4CC4)cc3c2)C1 | enzyme activity, inhibitor | 1 µM | – | inhibition | 9%
CNC1C[S+]2CC[S+]3CC[S+](C1)[Ru-4]321([N]=C=S)[n]2c3ccc(OC)cc3c3c4c(c5cc(F)c[n+]1c5c32)C(=O)NC4=O (stereo not shown) | KinomeScan | 0.1 µM | reference: untreated | remaining binding | 94%
Cc1ccc(-c2c(/C=C(\C#N)C(=O)NC(C)C)n(CCCO)c3ncnc(N)c23)cc1 | cell-free assay, competition with immobilised ligand | 1 µM | – | remaining binding | 79%
Cc1cnc2nc1Nc1cccc(c1)COC/C=C/COCc1cc(ccc1OCCN1CCOCC1)N2 | binding | 0.1 µM | – | remaining binding | 91%
C[C@H]1CN(C(=O)c2cn(-c3ccnc(N)n3)c3cc(C#CC4(O)CCCCC4)ccc23)CCN1 | enzyme activity, inhibitor, FRET | 1 µM | – | inhibition | 2%
COc1ccc(O)cc1-c1c[nH]c2ncc(-c3cncc(C(=O)N(C)C)c3)cc12 | binding, competition with immobilised ligand | 0.2 µM | – | inhibition | 10%
COc1cc(Nc2nccc(-c3cnn4nc(OC)ccc34)n2)cc(C(F)(F)F)c1 | binding, competition with immobilised ligand | 1 µM | – | remaining binding | 8%
COc1cc(-n2cc3cc(F)cc(C(N)=O)c3n2)cc(Cl)c1C1CC(O)(CCO)Cc2ccccc21 (stereo not shown) | enzyme activity, inhibitor | 10 µM | – | inhibition | 0.52%
Cc1cccc(O[C@H]2CCC[C@@H](C(C)CNCc3ccncc3)C2)c1 (relative stereo) | enzyme activity, inhibitor | 10 µM | – | inhibition | -4%

For quick reference, copied from above:
SMILES | assay | conditions | scale | measurement | value
CCn1cc(C(=O)O)c(=O)c2c(N)c(F)c(NC3CCCCC3)cc21 | kinase activity | 0.1 µM, together with: ATP at Km | – | inhibition | 9.3%
COc1c(Cl)cccc1Nc1c(-c2ccncc2C#C[C@@]2(C)CCCN2C(=O)/C=C/CN(C)C)[nH]c2c1C(=O)NCC2 | binding, competition with immobilised ligand | 3 µM | – | remaining binding | 100%
